Results pooled from the literature.
Compare with care: the assays were run in different laboratories. Values joined by “and” are separate records of one study, mostly repeats; a detail may differ. ± marks the error that the study gave.

SMILES | target or system | assay | system | setting | quantity | result
CC[C@H](C)[C@H](NC(=O)[C@H](CCCNC(=N)N)NC(=O)[C@H](CCCCN)NC(=O)[C@H](Cc1ccc(O)cc1)NC(=O)[C@H](CC(=O)O)NC(=O)[C@H](C)NC(=O)CNC(=O)CCOCCOCCOCCNC(=O)CN1CCN(CC(=O)O)CCN(CC(=O)O)CCN(CC(=O)O)CC1)C(=O)N[C@H](C(=O)N[C@@H](CC(C)C)C(=O)N[C@@H](CCCCN)C(=O)N[C@H](C(=O)N[C@@H](CC(N)=O)C(N)=O)C(C)C)[C@@H](C)O [copper-64 labelled] | – | ex vivo gamma counting | male C57BL/6J mouse, B16-F10 tumour, B16-F10 tumour | intravenous, 1.85 MBq, 5 min | tissue uptake | 5.52 ± 1.35 %ID/g
O=C([O-])CN1CCCN2CCN(CCCN(CC(=O)NC(Cc3ccccc3)C(=O)NC(Cc3ccccc3)C(=O)NCCCC[C@H](NC(=O)CCCCCCC(=O)NCCCC[C@H](NC(=O)N[C@@H](CCC(=O)O)C(=O)O)C(=O)O)C(=O)O)CC2)CC1.[64Cu+2] (single isomer, unassigned) | – | – | mouse PC-3 flu tumour, PSMA− tumour | 2 h | tissue uptake | 0.26 ± 0.04 %ID/g
C[C@H](O)[C@@H](NC(=O)[C@H]1CCCN1C(=O)[C@@H](CCCCN)NC(=O)[C@@H](CO)NC(=O)[C@@H](Cc1ccc(O)cc1)NC(=O)[C@@H](CC(N)=O)NC(=O)CCOCCOCCOCCNC(=O)CN1CCN(CC(=O)O)CCN(CC(=O)O)CCN(CC(=O)O)CC1)C(=O)N[C@H](CC(=O)O)C(=O)N[C@H](CCCNC(=N)N)C(=O)N[C@H](CCC(N)=O)C(=O)N[C@H](Cc1ccc(O)cc1)C(=O)N[C@H](Cc1c[nH]cn1)C(=O)N[C@H](Cc1ccccc1)C(N)=O [copper-64 labelled] | – | ex vivo gamma counting | C57BL/6J mouse, male, normal, testis | intravenous, 1.85 MBq, 40 min | tissue uptake | 0.3 ± 0.01 %ID/g
CC[C@H](C)[C@H](NC(=O)[C@H](CCCNC(=N)N)NC(=O)[C@H](CCCCN)NC(=O)[C@H](Cc1ccc(O)cc1)NC(=O)[C@H](CC(=O)O)NC(=O)[C@H](C)NC(=O)CNC(=O)CCOCCOCCOCCNC(=O)CN1CCN(CC(=O)O)CCN(CC(=O)O)CCN(CC(=O)O)CC1)C(=O)N[C@H](C(=O)N[C@H](C(=O)N[C@@H](CCCCN)C(=O)N[C@H](C(=O)N[C@@H](CC(N)=O)C(N)=O)C(C)C)C(C)C)[C@@H](C)O [copper-64 labelled] | – | – | C57BL/6J mouse male, B16-F10 tumour, small intestine | intravenous, 1.85 MBq, 100 min, 67Ga complex | tissue uptake | 2.7 ± 0.049 %ID/g
CSCC[C@H](NC(=O)CNC(=O)[C@H](CCCCN)NC(=O)[C@H](CC(C)C)NC(=O)[C@@H]1CCCN1C(=O)[C@H](CO)NC(=O)[C@H](Cc1c[nH]cn1)NC(=O)[C@H](Cc1c[nH]c2ccccc12)NC(=O)[C@H](CCCNC(=N)N)NC(=O)[C@H](CC(C)C)NC(=O)[C@H](CCCNC(=N)N)NC(=O)[C@H](Cc1c[nH]c2ccccc12)NC(=O)[C@H](CS)NC(=O)CCCCCNC(=O)CN1CCN(CC(=O)O)CCN(CC(=O)O)CCN(CC(=O)O)CC1)C(=O)O [copper-64 labelled] | – | – | BALB/c nude mouse, Huh-7 tumour, small intestine | intravenous, 18 h, ex vivo biodistribution | tissue uptake | 3.52 %ID/g
O=C1NC2(CC2)COc2ncc(F)cc2[C@H]2COCCN2c2ccn3ncc1c3n2 | – | – | Sprague-Dawley rat, male, thymus | oral, 10 mg/kg/day, 4 weeks dosing, end of recovery | organ-to-body weight ratio | 0.078 ± 0.01%
CN1Cc2cc(Cl)ccc2-n2c(nnc2C2CCN(c3cccc([18F])n3)CC2)C1 | – | – | C57BL/6 mouse male, heart | intravenous, 3.7 MBq, 60 min | tissue uptake | 3.25 ± 0.43 %ID/g
Cc1ccc(OCCN(C)C)cc1C(=O)N[C@H](C)c1cc(-c2cnn(CC(=O)N(C)C)c2)nc2ccccc12 | African green monkey cells | – | – | 250 µM | viability | 103%
CC[C@H](C)[C@H](NC(=O)[C@H](CCCCN)NC(=O)CNC(=O)[C@H](CC(C)C)NC(=O)[C@H](Cc1ccccc1)NC(=O)[C@H](CCCCN)NC(=O)[C@H](CO)NC(=O)[C@H](Cc1ccccc1)NC(=O)[C@H](Cc1c[nH]c2ccccc12)NC(=O)[C@H](CCC(N)=O)NC(=O)[C@@H](NC(=O)[C@H](Cc1ccccc1)NC(=O)CCCCCNC(=O)CN1CCN(CC(=O)O)CCN(CC(=O)O)CCN(CC(=O)O)CC1)C(C)C)C(=O)N[C@@H](CCC(=O)O)C(=O)N1CCC[C@H]1C(=O)N[C@@H](CC(=O)O)C(=O)N[C@H](C(=O)N[C@@H](CO)C(=O)N[C@@H](CCC(N)=O)C(=O)N[C@H](C(=O)N[C@@H](CCC(N)=O)C(=O)N[C@@H](CC(=O)O)C(=O)N1CCC[C@H]1C(=O)N[C@@H](CC(N)=O)C(=O)N[C@@H](CC(=O)O)C(=O)N[C@@H](CCC(N)=O)C(=O)N[C@@H](Cc1ccc(O)cc1)C(=O)N[C@@H](CCC(=O)O)C(=O)N1CCC[C@H]1C(=O)N[C@@H](Cc1ccccc1)C(=O)O)C(C)C)C(C)C [copper-64 labelled] | – | – | C57BL/6 male mouse, tumour-naive, thymus | 0.5 h | tissue uptake | 2.49 ± 0.3 %ID/g
CC[C@H](C)[C@H](NC(=O)[C@@H](Cc1c[nH]c2ccccc12)NC(=O)[C@@H]1CCCN1C(=O)[C@H](CCCCN)NC(=O)[C@H](CCCCN)NC(=O)CCNC(=O)CCNC(=O)CN1CCN(CC(=O)O)CCN(CC(=O)O)CCN(CC(=O)O)CC1)C(=O)N[C@@H](C[Si](C)(C)C)C(=O)O [gallium-68 labelled] | – | – | nude mouse HT-29 xenograft, bone | 90 min | tissue uptake | 0.35 ± 0.26 %ID/g
Cc1cc(-c2cc([C@@H](C)NC(=O)c3cc(OCCN(C)C)ccc3C)c3ccccc3n2)n(C)n1 | Vero E6 | – | – | 250 µM | viability | 5.2% and 6%
Cc1nc2cccc(OCC(C)(C)C(=O)NC(C)C)c2c(N)c1C(=O)[O-].[Na+] | Escherichia coli | reverse mutation, plate incorporation | WP2 uvrA | 0.051 mg/plate, without S9 | revertant colonies | 30 ± 7 colonies/plate

Excerpt of the above:
SMILES | target or system | assay | system | setting | quantity | result
CC[C@H](C)[C@H](NC(=O)[C@H](CCCCN)NC(=O)CNC(=O)[C@H](CC(C)C)NC(=O)[C@H](Cc1ccccc1)NC(=O)[C@H](CCCCN)NC(=O)[C@H](CO)NC(=O)[C@H](Cc1ccccc1)NC(=O)[C@H](Cc1c[nH]c2ccccc12)NC(=O)[C@H](CCC(N)=O)NC(=O)[C@@H](NC(=O)[C@H](Cc1ccccc1)NC(=O)CCCCCNC(=O)CN1CCN(CC(=O)O)CCN(CC(=O)O)CCN(CC(=O)O)CC1)C(C)C)C(=O)N[C@@H](CCC(=O)O)C(=O)N1CCC[C@H]1C(=O)N[C@@H](CC(=O)O)C(=O)N[C@H](C(=O)N[C@@H](CO)C(=O)N[C@@H](CCC(N)=O)C(=O)N[C@H](C(=O)N[C@@H](CCC(N)=O)C(=O)N[C@@H](CC(=O)O)C(=O)N1CCC[C@H]1C(=O)N[C@@H](CC(N)=O)C(=O)N[C@@H](CC(=O)O)C(=O)N[C@@H](CCC(N)=O)C(=O)N[C@@H](Cc1ccc(O)cc1)C(=O)N[C@@H](CCC(=O)O)C(=O)N1CCC[C@H]1C(=O)N[C@@H](Cc1ccccc1)C(=O)O)C(C)C)C(C)C [copper-64 labelled] | – | – | C57BL/6 male mouse, tumour-naive, thymus | 0.5 h | tissue uptake | 2.49 ± 0.3 %ID/g
